Experimental data collected from several papers.
Each line is one published result; not all experiments were run side by side. “And” joins repeats or separate records; there may be more than shown. ± marks the error that the study gave.
OPRL1: Nociceptin receptor (OPRL1, Homo sapiens, UniProt P41146)
Oprd1: Delta-type opioid receptor (Oprd1, Rattus norvegicus, UniProt P33533)
OPRK1: Kappa-type opioid receptor (OPRK1, Homo sapiens, UniProt P41145)
L/N: L/N (Lassa virus, UniProt O09705+P13699)
rep R3428I 3C-like proteinase: Replicase polyprotein 1ab, 3C-like proteinase (rep, Severe acute respiratory syndrome-related coronavirus, UniProt P0C6X7, R3428I)

By UniProt entry, the sequences of proteins in these tests, tags left out. Residues count along the entry.
UniProt P41146, whole entry: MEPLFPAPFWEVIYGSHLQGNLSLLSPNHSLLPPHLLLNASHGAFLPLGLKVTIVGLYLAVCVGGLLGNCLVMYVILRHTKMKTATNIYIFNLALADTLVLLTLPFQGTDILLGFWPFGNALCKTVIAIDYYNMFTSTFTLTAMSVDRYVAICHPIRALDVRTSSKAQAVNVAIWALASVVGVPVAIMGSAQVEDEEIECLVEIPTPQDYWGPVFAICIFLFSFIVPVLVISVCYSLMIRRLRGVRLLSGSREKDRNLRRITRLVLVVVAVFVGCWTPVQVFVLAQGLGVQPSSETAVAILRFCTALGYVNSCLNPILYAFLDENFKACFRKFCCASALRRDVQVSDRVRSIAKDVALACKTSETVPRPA
UniProt P33533, whole entry: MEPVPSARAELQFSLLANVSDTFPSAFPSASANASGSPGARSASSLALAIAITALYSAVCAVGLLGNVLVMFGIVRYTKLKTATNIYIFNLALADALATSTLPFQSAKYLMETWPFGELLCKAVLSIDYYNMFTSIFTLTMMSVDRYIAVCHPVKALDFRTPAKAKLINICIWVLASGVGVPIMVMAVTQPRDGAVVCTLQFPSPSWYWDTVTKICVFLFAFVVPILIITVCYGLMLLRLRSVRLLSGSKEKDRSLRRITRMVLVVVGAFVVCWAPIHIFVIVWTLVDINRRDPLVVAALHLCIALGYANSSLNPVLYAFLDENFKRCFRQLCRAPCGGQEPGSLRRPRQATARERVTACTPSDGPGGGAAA
UniProt P35372, whole entry: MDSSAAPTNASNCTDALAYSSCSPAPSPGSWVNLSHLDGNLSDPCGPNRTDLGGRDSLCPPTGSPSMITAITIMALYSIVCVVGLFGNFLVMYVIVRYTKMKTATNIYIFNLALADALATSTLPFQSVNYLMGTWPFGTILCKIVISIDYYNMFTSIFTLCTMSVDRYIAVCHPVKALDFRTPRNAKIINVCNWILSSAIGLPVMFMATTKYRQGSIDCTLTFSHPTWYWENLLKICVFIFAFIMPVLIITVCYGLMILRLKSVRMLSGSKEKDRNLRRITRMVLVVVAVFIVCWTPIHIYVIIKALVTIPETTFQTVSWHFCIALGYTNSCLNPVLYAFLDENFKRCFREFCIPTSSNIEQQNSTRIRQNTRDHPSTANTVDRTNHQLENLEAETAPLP
UniProt Q8N3R9, 256-336 F318W limits assumed: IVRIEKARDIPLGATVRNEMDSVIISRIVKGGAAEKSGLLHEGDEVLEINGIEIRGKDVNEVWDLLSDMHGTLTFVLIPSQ

CCC1C(=O)N(C2CCN(C3CCCc4ccccc43)CC2)c2ccccc21 (stereo not drawn)  EC50 (OPRL1; agonist; cell membranes): 50.2 ± 8.8 nM
O=CN1CC[C@]23c4c5ccc(O)c4O[C@H]2[C@@H](O)C=C[C@H]3[C@H]1C5  Ki (Oprd1; rat brain membranes; with: [3H]DSLET): 17700 ± 1200 nM
CN(C)[C@]1(c2ccccc2)CC[C@]2(CC1)OCCc1c3cc(F)ccc3[nH]c12  Kd (OPRK1; binding; CHO cell membranes): 0.448 µM
CO[C@]12CC[C@@]3(C[C@@H]1[C@](C)(O)c1cccs1)[C@H]1Cc4ccc(O)c5c4[C@@]3(CCN1CC1CC1)[C@H]2O5  Ki (Oprd1; binding, radioligand displacement; C6 rat glioma; with: [3H]diprenorphine): 1 ± 0.22 nM
Cc1cc(N)c2ccccc2[n+]1CCCCCCCCCC[n+]1c(C)cc(N)c2ccccc21  EC50 (L/N; viral replication, Gaussia luciferase reporter): 1530 nM
O=C(N[C@@H](COC(=O)c1ccccc1)C(=O)NC1CCCCC1)c1ccccc1  IC50 (rep R3428I 3C-like proteinase; enzyme activity, inhibitor, HPLC substrate depletion; pH 4.0): 220 µM
CCC1C(=O)N(C2CCN(C3CCc4ccccc4C3)CC2)c2ccccc21 (stereo not drawn)  Ki (OPRK1; radioligand displacement; with: tritiated U-69593): 15.1 ± 1.6 nM
CN(C)[C@]1(c2ccccc2)CC[C@]2(CC1)OCCc1c3cc(F)ccc3[nH]c12  EC50 (OPRK1; cAMP, agonist; human receptor): 166 ± 67.9 nM
O=C(/C=C/c1ccccc1)N[C@H](COC(=O)c1ccncc1)C(=O)NC1CCCCC1  IC50 (rep R3428I 3C-like proteinase; enzyme activity, inhibitor, HPLC substrate depletion; pH 4.0): 210 µM
O=S(=O)(CCCn1cc(CCNS(=O)(=O)c2ccc(Br)cc2Cl)nn1)Nc1ccc(Nc2ccc(C(F)(F)F)nn2)cc1  Kd (UDP-N-acetylglucosamine 2-epimerase (Bacillus anthracis, UniProt A0A348ACF3, N370A); isothermal titration calorimetry): 0.1 µM
Nc1nc(N)c2nc(CNc3ccc(C(=O)N[C@@H](CCC(=O)O)C(=O)O)cc3)cnc2n1  EC50 (Botulinum neurotoxin type A, heavy chain (Clostridium botulinum, UniProt P0DPI0); binding, scintillation proximity): 703 nM and 700 nM
Fc1ccc(CNc2ncnc3ccc(F)cc23)cc1  EC50 (L/N; viral replication, Gaussia luciferase reporter): 4850 nM
CCC1C(=O)N(C2CCN([C@H]3CC[C@@H]4CCCc5cccc3c54)CC2)c2ccccc21 (relative stereo)  Ki (OPRL1; radioligand displacement; with: [3H]N/OFQ): 3.16 nM
NC(=O)c1cccc2c1-c1ccccc1C2=O  Kd (Ricin, A chain (Ricinus communis, UniProt P02879); binding, SPR): 153 µM
CC(C)C[C@H](NC(=O)CNC(=O)[C@@H](N)Cc1ccccc1)C(=O)N[C@@H](Cc1ccccc1)C(=O)N[C@@H](CC(=O)O)C(=O)O  Kd (Shiga-like toxin 2 subunit A, A1 fragment (UniProt P09385); SPR; 0.5% DMSO; pH 7.4): 125 ± 27 µM
O=C1Cc2ccccc2N1C1CCN([C@H]2CC[C@@H]3CCCc4cccc2c43)CC1 (relative stereo)  Ki (OPRM1 (Homo sapiens, UniProt P35372); radioligand displacement; with: [3H]DAMGO): 41.5 ± 3.71 nM
CC(C)C[C@H](NC(=O)[C@H](CC(N)=O)NC(=O)[C@@H](N)CCCCN)C(=O)N[C@@H](CC(N)=O)C(=O)N[C@@H](CO)C(=O)N[C@@H](CO)C(=O)N[C@@H](CCC(=O)O)C(=O)NCC(=O)N[C@H](C(=O)N1CCC[C@H]1C(=O)N[C@@H](CC(=O)O)C(=O)N[C@@H](CC(C)C)C(=O)N[C@@H](CC(C)C)C(=O)N[C@H](C(=O)O)C(C)C)C(C)C  Kd (Protein PALS1 (PALS1, Homo sapiens, UniProt Q8N3R9, F318W); SPR; pH 7.4, 25 °C, with: PALS1 PDZ F318W): 69 ± 7 µM
CCC1C(=O)N(C2CCN(CCCc3ccccc3)CC2)c2ccccc21 (stereo not drawn)  EC50 (OPRL1; agonist; cell membranes): 72.2 ± 19.4 nM
NC12CC3CC(CC(C3)C1)C2  EC50 (Influenza A virus; viral replication; MDCK, A/Swine/Iowa/9-0814/2009 (H1N1)): ≤ 100000 nM
CCC1C(=O)N(C2CCN(Cc3cccc4[nH]ccc34)CC2)c2ccccc21 (stereo not drawn)  Ki (OPRK1; radioligand displacement; with: tritiated U-69593): 12.8 ± 1.6 nM
O=C(/C=C/c1ccccc1)N[C@@H](COC(=O)c1ccccn1)C(=O)NC1CCCCC1  IC50 (rep R3428I 3C-like proteinase; enzyme activity, inhibitor, HPLC substrate depletion; pH 4.0): 560 µM

Some of these lines once more:
CCC1C(=O)N(C2CCN([C@H]3CC[C@@H]4CCCc5cccc3c54)CC2)c2ccccc21 (relative stereo)  Ki (OPRL1; radioligand displacement; with: [3H]N/OFQ): 3.16 nM
CN(C)[C@]1(c2ccccc2)CC[C@]2(CC1)OCCc1c3cc(F)ccc3[nH]c12  EC50 (OPRK1; cAMP, agonist; human receptor): 166 ± 67.9 nM
